# Experimental data collected from several papers.
# A part holds a random share of what one study measured.
# Chain of UniProt P50750 (whole entry, looked up): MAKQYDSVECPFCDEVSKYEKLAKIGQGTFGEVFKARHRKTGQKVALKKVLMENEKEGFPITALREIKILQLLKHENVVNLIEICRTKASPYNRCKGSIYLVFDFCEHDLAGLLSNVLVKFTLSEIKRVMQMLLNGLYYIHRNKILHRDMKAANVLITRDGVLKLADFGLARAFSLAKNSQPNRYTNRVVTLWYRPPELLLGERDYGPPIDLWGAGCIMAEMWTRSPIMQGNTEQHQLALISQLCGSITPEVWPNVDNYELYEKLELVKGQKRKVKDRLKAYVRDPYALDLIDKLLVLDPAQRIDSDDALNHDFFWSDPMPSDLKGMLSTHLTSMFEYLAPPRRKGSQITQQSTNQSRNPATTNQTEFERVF
# Chain of UniProt P68400 (whole entry, looked up): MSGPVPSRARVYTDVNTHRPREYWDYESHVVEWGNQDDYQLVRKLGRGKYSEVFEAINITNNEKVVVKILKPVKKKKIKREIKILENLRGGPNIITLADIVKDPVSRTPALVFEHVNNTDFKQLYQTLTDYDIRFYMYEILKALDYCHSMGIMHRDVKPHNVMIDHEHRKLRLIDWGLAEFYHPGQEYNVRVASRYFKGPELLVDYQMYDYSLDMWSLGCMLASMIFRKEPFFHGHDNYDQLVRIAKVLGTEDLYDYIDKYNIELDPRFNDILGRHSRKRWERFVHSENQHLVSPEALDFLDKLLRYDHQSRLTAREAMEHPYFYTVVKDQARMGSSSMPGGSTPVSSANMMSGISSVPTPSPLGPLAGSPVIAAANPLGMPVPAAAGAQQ
# Chain of UniProt P41743 (whole entry, looked up): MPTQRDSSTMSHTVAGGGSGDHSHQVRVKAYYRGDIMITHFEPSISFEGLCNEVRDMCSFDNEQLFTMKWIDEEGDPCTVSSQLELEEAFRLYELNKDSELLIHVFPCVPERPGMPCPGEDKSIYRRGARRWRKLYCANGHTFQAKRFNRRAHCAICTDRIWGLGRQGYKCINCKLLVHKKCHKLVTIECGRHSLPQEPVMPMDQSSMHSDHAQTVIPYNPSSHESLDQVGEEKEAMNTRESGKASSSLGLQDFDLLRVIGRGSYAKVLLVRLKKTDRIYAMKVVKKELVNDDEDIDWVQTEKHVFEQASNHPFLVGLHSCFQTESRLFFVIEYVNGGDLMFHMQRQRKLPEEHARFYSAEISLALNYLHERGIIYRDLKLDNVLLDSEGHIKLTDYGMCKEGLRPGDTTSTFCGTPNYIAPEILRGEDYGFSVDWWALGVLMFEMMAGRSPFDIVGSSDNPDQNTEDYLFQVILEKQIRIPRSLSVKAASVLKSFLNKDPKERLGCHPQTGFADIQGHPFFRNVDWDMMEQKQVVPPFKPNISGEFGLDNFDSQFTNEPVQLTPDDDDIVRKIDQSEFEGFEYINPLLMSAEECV
# Chain of UniProt Q12851 (whole entry, looked up): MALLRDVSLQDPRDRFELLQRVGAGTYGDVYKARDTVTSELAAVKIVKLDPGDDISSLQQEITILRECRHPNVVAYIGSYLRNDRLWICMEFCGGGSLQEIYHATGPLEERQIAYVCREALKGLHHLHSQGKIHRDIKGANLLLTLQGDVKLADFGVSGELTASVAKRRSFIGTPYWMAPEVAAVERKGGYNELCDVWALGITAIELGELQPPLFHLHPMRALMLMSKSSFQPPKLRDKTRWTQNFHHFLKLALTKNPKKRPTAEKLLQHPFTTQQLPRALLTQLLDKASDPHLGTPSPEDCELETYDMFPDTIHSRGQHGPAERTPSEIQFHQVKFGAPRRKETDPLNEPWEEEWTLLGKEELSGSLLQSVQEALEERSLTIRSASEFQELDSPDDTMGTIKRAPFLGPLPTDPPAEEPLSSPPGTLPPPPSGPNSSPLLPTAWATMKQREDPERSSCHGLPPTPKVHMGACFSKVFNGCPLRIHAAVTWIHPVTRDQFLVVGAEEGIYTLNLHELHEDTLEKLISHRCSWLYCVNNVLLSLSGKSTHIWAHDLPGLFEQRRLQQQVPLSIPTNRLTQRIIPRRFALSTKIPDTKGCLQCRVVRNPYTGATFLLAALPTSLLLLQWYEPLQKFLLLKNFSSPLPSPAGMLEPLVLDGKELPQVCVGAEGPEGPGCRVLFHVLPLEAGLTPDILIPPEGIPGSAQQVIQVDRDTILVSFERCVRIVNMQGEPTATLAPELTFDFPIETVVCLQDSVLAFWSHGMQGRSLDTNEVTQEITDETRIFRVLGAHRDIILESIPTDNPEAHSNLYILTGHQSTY

# Block 1
# Cell line: A-375
# Concentration: 100 µM
# Time: 18 h
SMILES,viability [%]
CCNCC(O)c1cccc(O)c1 (stereo not drawn),84.3
C[C@]12CCC(=O)C(O)=C1CC[C@@H]1[C@@H]2CC[C@]2(C)C(=O)CC[C@@H]12,80.7
CCCC[N+]1(C)[C@@H]2C[C@@H](OC(=O)[C@H](CO)c3ccccc3)C[C@H]1[C@@H]1O[C@@H]12 (stereo partly drawn),101
C[C@]12CCC(=O)C=C1CC[C@@H]1[C@@H]2C(=O)C[C@]2(C)C(=O)CC[C@@H]12,118

# Block 2
# Target: DNA polymerase theta, ATPase domain (POLQ, Homo sapiens, UniProt O75417)
# Chain of UniProt O75417 (whole entry, unmodified, looked up): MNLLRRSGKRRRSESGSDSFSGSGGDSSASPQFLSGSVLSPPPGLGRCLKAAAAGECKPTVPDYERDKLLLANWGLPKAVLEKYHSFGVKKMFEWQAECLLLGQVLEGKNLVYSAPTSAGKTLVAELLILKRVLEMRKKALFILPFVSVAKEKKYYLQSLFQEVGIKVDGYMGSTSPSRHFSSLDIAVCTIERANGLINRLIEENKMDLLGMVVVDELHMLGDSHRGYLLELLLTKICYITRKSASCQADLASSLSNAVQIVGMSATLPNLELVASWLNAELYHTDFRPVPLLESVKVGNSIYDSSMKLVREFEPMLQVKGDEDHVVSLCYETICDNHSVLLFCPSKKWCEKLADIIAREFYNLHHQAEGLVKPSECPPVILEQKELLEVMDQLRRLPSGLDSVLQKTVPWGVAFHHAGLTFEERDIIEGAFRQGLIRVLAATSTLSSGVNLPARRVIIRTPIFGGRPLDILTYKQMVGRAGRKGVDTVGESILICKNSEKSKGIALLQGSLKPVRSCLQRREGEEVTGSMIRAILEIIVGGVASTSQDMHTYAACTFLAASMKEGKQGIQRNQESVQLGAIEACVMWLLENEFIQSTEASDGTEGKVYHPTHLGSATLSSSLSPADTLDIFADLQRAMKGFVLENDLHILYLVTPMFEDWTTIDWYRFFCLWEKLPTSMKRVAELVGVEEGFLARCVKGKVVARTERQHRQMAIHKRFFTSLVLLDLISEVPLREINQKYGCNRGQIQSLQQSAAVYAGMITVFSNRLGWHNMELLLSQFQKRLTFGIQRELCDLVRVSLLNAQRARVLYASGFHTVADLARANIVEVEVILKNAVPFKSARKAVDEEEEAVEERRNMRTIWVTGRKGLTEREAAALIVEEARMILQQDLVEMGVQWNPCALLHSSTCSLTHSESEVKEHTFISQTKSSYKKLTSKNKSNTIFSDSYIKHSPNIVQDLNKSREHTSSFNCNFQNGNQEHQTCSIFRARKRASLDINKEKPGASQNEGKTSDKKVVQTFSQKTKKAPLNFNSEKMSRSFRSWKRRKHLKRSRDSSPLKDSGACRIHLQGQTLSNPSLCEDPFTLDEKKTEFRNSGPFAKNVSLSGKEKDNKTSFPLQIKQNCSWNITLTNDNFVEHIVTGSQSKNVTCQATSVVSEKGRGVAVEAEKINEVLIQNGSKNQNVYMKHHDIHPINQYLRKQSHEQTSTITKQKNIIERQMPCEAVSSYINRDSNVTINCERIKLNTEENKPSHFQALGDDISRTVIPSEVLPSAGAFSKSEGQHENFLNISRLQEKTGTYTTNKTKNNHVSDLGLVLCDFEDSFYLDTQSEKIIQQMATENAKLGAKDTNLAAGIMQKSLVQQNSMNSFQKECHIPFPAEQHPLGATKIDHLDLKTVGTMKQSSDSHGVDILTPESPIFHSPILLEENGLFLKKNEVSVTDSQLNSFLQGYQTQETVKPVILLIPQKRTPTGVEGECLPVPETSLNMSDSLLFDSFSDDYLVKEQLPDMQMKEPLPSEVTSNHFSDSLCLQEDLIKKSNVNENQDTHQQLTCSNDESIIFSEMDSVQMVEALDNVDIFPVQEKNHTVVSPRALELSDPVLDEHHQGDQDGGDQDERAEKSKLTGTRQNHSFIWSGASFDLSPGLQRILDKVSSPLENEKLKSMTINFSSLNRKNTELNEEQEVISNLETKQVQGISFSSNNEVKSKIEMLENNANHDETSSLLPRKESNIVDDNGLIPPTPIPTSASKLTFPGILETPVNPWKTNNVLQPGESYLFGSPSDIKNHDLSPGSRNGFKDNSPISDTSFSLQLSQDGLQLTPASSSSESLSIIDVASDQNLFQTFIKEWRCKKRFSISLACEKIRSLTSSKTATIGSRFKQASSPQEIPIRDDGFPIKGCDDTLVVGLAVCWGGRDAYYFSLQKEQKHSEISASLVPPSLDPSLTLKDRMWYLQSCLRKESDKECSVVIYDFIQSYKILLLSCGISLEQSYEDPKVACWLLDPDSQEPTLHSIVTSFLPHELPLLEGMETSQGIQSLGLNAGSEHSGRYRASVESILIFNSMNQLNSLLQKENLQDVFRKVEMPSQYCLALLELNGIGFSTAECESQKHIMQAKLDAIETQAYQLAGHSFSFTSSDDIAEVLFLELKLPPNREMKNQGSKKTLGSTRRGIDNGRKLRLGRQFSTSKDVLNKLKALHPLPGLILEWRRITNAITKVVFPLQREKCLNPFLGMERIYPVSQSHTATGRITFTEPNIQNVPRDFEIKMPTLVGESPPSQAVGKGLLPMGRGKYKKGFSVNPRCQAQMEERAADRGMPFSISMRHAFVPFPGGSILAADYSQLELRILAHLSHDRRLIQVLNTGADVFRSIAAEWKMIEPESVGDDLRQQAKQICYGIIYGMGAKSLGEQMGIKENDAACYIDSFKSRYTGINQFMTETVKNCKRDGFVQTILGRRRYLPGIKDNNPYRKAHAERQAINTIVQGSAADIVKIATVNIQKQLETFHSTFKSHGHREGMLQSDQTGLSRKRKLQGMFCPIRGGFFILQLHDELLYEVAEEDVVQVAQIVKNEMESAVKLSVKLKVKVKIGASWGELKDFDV
# Effect on: enzyme activity
# Mode: inhibitor
# Concentration: 77 µM
SMILES,remaining activity [%]
CCCN(CCC)C1CCc2ccc(O)cc2C1 (stereo not drawn),104
CCN1CCN(C(=O)Cc2ccc(Nc3ncc(F)c(Nc4ccc(C(=O)Nc5ccccc5Cl)cc4)n3)cc2)CC1,93.4
CC(=O)NC1CCSC1=O (racemic),95.7

# Block 3
# Cell line: Huh-7
# Concentration: 10 µM
# Time: 24 h
Structure (SMILES),viability
N[C@@H](Cc1ccc(N(CCCl)CCCl)cc1)C(=O)O,61.8%
CC(C)[N+](C)(CCC(C(N)=O)(c1ccccc1)c1ccccc1)C(C)C,102%
CCC(=O)O[C@H]1CC[C@H]2[C@@H]3CCC4=CC(=O)CC[C@]4(C)[C@H]3CC[C@]12C,86.3%

# Block 4
# SMILES: COC[C@H]1OC(=O)c2coc3c2[C@@]1(C)C1=C(C3=O)[C@@H]2CCC(=O)[C@@]2(C)C[C@H]1OC(C)=O
# Effect on: enzyme activity
# Mode: inhibitor
# Concentration: 0.5 µM
# Reference: control
target,remaining activity [%]
"PLK2 (Homo sapiens, UniProt Q9NYY3)",51.6
"KIT (Homo sapiens, UniProt P10721)",91.3
"EPHA5 (Homo sapiens, UniProt P54756)",86.5
"PRKCD (Homo sapiens, UniProt Q05655)",96.1
"CSNK2A1 (Homo sapiens, UniProt P68400)",94.9
"LYN (Homo sapiens, UniProt P07948)",103
"LRRK2 (Homo sapiens, UniProt Q5S007)",97.6
"PRKCI (Homo sapiens, UniProt P41743)",90
"MAP4K2 (Homo sapiens, UniProt Q12851)",97.7
"MAPK12 (Homo sapiens, UniProt P53778)",97.7
"NEK4 (Homo sapiens, UniProt P51957)",74.7
"Cyclin-dependent kinase 9, with cyclin T1 (CDK9, Homo sapiens, UniProt P50750)",93.7

# Single results of other studies
# Cell line: mouse MPNST tumor cells
# Technique: high-content immunofluorescence imaging
# Measured: nuclear SOX9
# Concentration: 10 µM
# Time: 12 h
# Notes: mean of 2 replicates
# Reference: DMSO control
# Direction: higher = more nuclear SOX9
Compound,nuclear SOX9 intensity
O=C(Oc1ccc([N+](=O)[O-])cc1)N1CCN(Cc2cccc(Oc3ccccc3)c2)CC1,98.1 % of DMSO
CC(N)C(O)c1ccccc1 (stereo not drawn),109 % of DMSO

# Excerpt of the above (block 4):
target,remaining activity [%]
"MAPK12 (Homo sapiens, UniProt P53778)",97.7
"Cyclin-dependent kinase 9, with cyclin T1 (CDK9, Homo sapiens, UniProt P50750)",93.7
"MAP4K2 (Homo sapiens, UniProt Q12851)",97.7
"EPHA5 (Homo sapiens, UniProt P54756)",86.5
